{"data": "Results collected from several papers", "note": "Each numbered part is a random draw from the data of one study; scales do not carry over between parts. Positions count from the first letter of the parent shown."}
{"data": "Set 1", "target": "Interferon regulatory factor 7, full length, phosphomimetic (IRF7, Homo sapiens, UniProt Q92985, residues 1-503, S101K/S471D/S472D/S475D/S476D/S477D/S483D/S484D/S487D)", "method": "protein-binding microarray", "form": "double-stranded DNA, one strand shown", "medium": "in vitro", "tested at": "250 nM", "setting": "60-bp whole probe", "together with": "salmon DNA 0.4 mg/ml", "reference": "random background probes", "direction": "higher = stronger binding", "shared flanks, not repeated": "GCCTAGCAC … GTCTTGATTCGCTTGACGCTGCTG", "Target sequence (chain)": "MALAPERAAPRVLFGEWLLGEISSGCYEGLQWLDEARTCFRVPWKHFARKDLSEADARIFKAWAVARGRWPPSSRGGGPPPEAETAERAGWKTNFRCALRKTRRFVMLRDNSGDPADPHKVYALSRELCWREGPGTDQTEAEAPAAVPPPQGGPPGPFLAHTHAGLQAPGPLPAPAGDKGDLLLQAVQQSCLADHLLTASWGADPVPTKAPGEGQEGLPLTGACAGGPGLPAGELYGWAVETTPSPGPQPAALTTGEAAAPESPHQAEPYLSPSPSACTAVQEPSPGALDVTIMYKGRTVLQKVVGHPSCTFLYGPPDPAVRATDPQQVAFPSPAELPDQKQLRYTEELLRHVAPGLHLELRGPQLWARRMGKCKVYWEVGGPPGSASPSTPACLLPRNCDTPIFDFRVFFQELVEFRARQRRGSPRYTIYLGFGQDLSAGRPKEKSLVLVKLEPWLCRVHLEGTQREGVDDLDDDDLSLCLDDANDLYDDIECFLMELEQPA"}
{"Oligonucleotide": "TTAGGTCTCGATATCGGTTAGTGCTAG", "log fluorescence [z-score]": 3.45}
{"Oligonucleotide": "GACGATCTCAGTATCGAGCCGTGCTAG", "log fluorescence [z-score]": -0.0561}
{"Oligonucleotide": "TTAGGTCGCCTTTTCCTTTAGTGCTAG", "log fluorescence [z-score]": 0.601}
{"Oligonucleotide": "GACGAACTCAGTATCGAGACGTGCTAG", "log fluorescence [z-score]": 0.102}
{"Oligonucleotide": "GACGGACTGGGACTGGGCACGTGCTAG", "log fluorescence [z-score]": -0.573}
{"Oligonucleotide": "AACGATCTCAGTATCGAGACGTGCTAG", "log fluorescence [z-score]": 0.345}
{"Oligonucleotide": "GACGATCTCGGGTATCGAGACGTGCTA", "log fluorescence [z-score]": 0.0232}
{"Oligonucleotide": "TTAGGTTTTGGGACTGGGTTAGTGCTA", "log fluorescence [z-score]": 0.395}
{"Oligonucleotide": "GACGATCTCAGTATCGAGTCGTGCTAG", "log fluorescence [z-score]": 0.716}
{"Oligonucleotide": "TCATATTGCTTTCTCTTACTGTGCTAG", "log fluorescence [z-score]": 1.15}
{"Oligonucleotide": "TCAGGACTGGGGACTGGGTTAGTGCTA", "log fluorescence [z-score]": -0.692}
{"Oligonucleotide": "TTAATGTGTTCTTGGATTCGGTGCTAG", "log fluorescence [z-score]": 0.497}
{"Oligonucleotide": "GGCGGTTTCGGGTATCGGGACGTGCTA", "log fluorescence [z-score]": 7.46}
{"Oligonucleotide": "GACGGTTTCGCGACTGGGGACGTGCTA", "log fluorescence [z-score]": 1.48}
{"Oligonucleotide": "TTAGGTTCAGGTTTCGGTTAGTGCTAG", "log fluorescence [z-score]": 8.66}
{"Oligonucleotide": "TCAGCTTTTTTTTTTTTACTGTGCTAG", "log fluorescence [z-score]": -0.0325}
{"Oligonucleotide": "TTAGGACTGGGGACTGCGTTAGTGCTA", "log fluorescence [z-score]": -0.385}
{"Oligonucleotide": "GACGATATCAGTATCAAGACGTGCTAG", "log fluorescence [z-score]": -0.232}
{"data": "Set 2", "target": "Sal-like protein 4, full length isoform B (SALL4, Homo sapiens, UniProt Q9UJQ4-2, residues 1-616)", "method": "universal PBM", "form": "double-stranded DNA, one strand shown", "medium": "in vitro", "tested at": "not given", "setting": "8-mer, flanks averaged, mean of replicates", "direction": "higher = stronger binding", "Residues (chain)": "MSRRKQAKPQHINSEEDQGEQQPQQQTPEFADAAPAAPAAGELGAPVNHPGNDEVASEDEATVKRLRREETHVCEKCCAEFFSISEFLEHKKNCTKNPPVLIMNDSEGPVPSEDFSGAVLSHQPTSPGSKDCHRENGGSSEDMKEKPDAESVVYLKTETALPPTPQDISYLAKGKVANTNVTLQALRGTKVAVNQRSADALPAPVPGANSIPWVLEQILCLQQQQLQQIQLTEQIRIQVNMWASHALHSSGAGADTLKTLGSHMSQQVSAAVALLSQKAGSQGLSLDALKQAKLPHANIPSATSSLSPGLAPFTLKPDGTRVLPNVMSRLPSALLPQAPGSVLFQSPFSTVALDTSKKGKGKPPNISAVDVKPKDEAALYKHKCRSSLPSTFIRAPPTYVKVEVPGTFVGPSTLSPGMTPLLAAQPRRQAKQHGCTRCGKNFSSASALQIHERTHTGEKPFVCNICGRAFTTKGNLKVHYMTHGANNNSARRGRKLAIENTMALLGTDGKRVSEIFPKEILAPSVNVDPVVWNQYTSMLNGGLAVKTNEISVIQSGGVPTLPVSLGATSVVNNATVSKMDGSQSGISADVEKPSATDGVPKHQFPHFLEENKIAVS"}
{"Oligonucleotide": "CGCTCAAG", "E-score": -0.182}
{"Oligonucleotide": "ACGTGCAT", "E-score": 0.228}
{"Oligonucleotide": "GAACGAAA", "E-score": 0.0189}
{"Oligonucleotide": "ATAGAAAT", "E-score": 0.327}
{"Oligonucleotide": "GGGAACTA", "E-score": -0.0096}
{"Oligonucleotide": "AGTGACCA", "E-score": -0.0577}
{"Oligonucleotide": "GACGTAAA", "E-score": 0.035}
{"Oligonucleotide": "CGAGCATA", "E-score": 0.0683}
{"Oligonucleotide": "ATTCGACA", "E-score": 0.0769}
{"Oligonucleotide": "ACCCATCA", "E-score": -0.0112}
{"Oligonucleotide": "CTCCGATA", "E-score": 0.0685}
{"Oligonucleotide": "CCACGAGC", "E-score": -0.218}
{"Oligonucleotide": "CCTATCAC", "E-score": -0.13}
{"Oligonucleotide": "ATAGGGCG", "E-score": -0.0399}
{"Oligonucleotide": "CCAGCCCG", "E-score": -0.387}
{"Oligonucleotide": "CGAGTGAG", "E-score": -0.177}
{"Oligonucleotide": "AAGACCCT", "E-score": -0.00259}
{"Oligonucleotide": "CGAATGTC", "E-score": -0.0323}
{"Oligonucleotide": "GAAATTGA", "E-score": 0.208}
{"Oligonucleotide": "CGGCGCAC", "E-score": -0.316}
{"Oligonucleotide": "CAAGTAGC", "E-score": -0.0967}
{"Oligonucleotide": "GAGCTGTA", "E-score": -0.0469}
{"data": "Set 3", "target": "CCNA1, cyclin fold, Cln2 fusion (human)", "method": "yeast growth competition, sequencing", "medium": "yeast", "setting": "weak parent motif", "reference": "not given", "direction": "higher = stronger binding", "starting sequence": "DTL docking peptide (human); PSSMRKICTYFHR"}
{"Variant": "C8A", "normalised enrichment score": -0.89}
{"Variant": "Y10A", "normalised enrichment score": 0.0807}
{"Variant": "K6A", "normalised enrichment score": -0.246}
{"Variant": "F11A", "normalised enrichment score": 0.117}
{"Variant": "S3A", "normalised enrichment score": -0.412}
{"Variant": "P1A", "normalised enrichment score": -0.592}
{"data": "Further values, each from its own experiment"}
{"Molecule": "PhoQ, residues 284 288 289 292 302 303 TASMAF", "target": "PhoP, residues 12 14 15 18 19 NHTVL (Escherichia coli, UniProt P23836)", "test": "Sort-seq, refers to: YFP reporter", "system": "E. coli", "conditions": "PhoQ-PhoP variant library, together with: 10 µM Mg2+", "scale": "reference: high Mg2+ state, higher = stronger signaling", "quantity": "fold induction", "result": 4.38}
{"note": "Some of these lines once more (set 2):"}
{"Oligonucleotide": "CCAGCCCG", "E-score": -0.387}
{"Oligonucleotide": "ATAGAAAT", "E-score": 0.327}
{"Oligonucleotide": "CTCCGATA", "E-score": 0.0685}
{"Oligonucleotide": "CAAGTAGC", "E-score": -0.0967}
{"Oligonucleotide": "ACGTGCAT", "E-score": 0.228}
{"Oligonucleotide": "ATAGGGCG", "E-score": -0.0399}
{"Oligonucleotide": "ATTCGACA", "E-score": 0.0769}
